Measured values collected from several papers.
Compare with care: the assays were run in different laboratories. Numbers after ± are the reported error. Values after ≈ are worked out from the molar mass of the structure shown.
Organism: Plasmodium falciparum

Compound | test | test system | conditions | how to read | endpoint | result
CN1CCC[C@@H]1C(=O)N[C@@H](Cc1ccc(-c2ccccc2)cc1)B(O)O | flow cytometry | 3D7 | 72 h |  | LD50 | 21 nM
CC(=NNC(=S)NN=C(C(=NO)c1ccccc1)c1ccccc1)c1ccccc1 |  | 3D7 |  | reference: HEK293 IC50 over parasite IC50 | selectivity ratio | 23.4
COc1ccc2nc3cc(Cl)ccc3c(NCCN3C(=O)c4ccc5c6c(ccc(c46)C3=O)C(=O)N(CCN(C)C)C5=O)c2c1 | parasite growth, SYBR Green I fluorescence | W2 over 3D7 |  | reference: IC50 W2 over IC50 3D7 | resistance index | 6.58
CCC1=CC(=CNC23CC4CC(CC(C4)C2)C3)N=C1c1ccc[nH]1 | parasite growth | Dd2, chloroquine-resistant |  |  | IC50 | 45 nM
O=C1C2=C(Nc3ccccc3SC2c2ccc(O)c(O)c2)c2ccccc21 (racemic) | growth, [3H]hypoxanthine incorporation | Dd2 |  |  | EC50 | > 5000 nM
COC1=CC(c2ccc[nH]2)=NC1=CNC1CCCCCCC1 | parasite growth | 7G8, chloroquine-resistant |  |  | IC50 | 7.5 nM
O=C1C2=C(Nc3ccccc3SC2C2CC2)c2ccccc21 (racemic) | growth, [3H]hypoxanthine incorporation | Dd2 |  |  | EC50 | 20 nM
O=C(CCc1ccc[nH]1)NCC(=O)NC12CC3CC(CC(C3)C1)C2 | parasite growth | Dd2, chloroquine-resistant |  |  | IC50 | > 2500 nM
O=C1C2=C(Nc3ccccc3SC2c2ccsc2)c2ccccc21 (racemic) |  | Dd2 expressing yeast DHOD | together with: 5 nM proguanil | reference: transgenic over parental Dd2 | fold resistance | 0.27
CN1CCCCC1C(=O)NC(Cc1ccc(-c2ccccc2)cc1)B(O)O (stereo not drawn) | parasite growth, flow cytometry | 3D7 | 72 h |  | LD50 | 9 nM
C[C@H]1C(=O)O[C@@H]2O[C@@]3(C)CC[C@@H]4[C@@]2(OO3)[C@H]1CC[C@]4(C)O | parasite growth, SYBR Green I | 3D7 |  |  | MIC90 | 0.103 ± 0.0029 µM (≈ 0.0307 µg/mL)
CCC1=CC(c2ccc[nH]2)=NC1=CNC12CC3CC(CC(C3)C1)C2 |  | HepG2, D6 |  | reference: HepG2 IC50 over D6 IC50 | selectivity index | 2440
N#Cc1c(-c2ccco2)[n+]([O-])c2ccc(C(F)(F)F)cc2[n+]1[O-] |  | K1 chloroquine-resistant |  | reference: K1 IC50 over 3D7 IC50 | resistance index | 0.71
N#Cc1ccc(C2Sc3ccccc3NC3=C2C(=O)c2ccccc23)cc1 (racemic) | growth, [3H]hypoxanthine incorporation | Dd2 |  |  | EC50 | 270 nM
CCC(C)C1NC(=O)C(Cc2ccccc2)NC(=O)C(CCCCCC(=O)C2CO2)NC(=O)C2CCCCN2C1=O (stereo not drawn) | flow cytometry | Dd2 | concentration not given, 48 h exposure | reference: DMSO control | time to full killing | 6 days
CC[C@H](C)[C@H](NC(=O)[C@@H](NC(=O)[C@H](Cc1ccc(O)cc1)NC(=O)[C@H](CCCCN)NC(=O)[C@H](CCCCN)NC(=O)[C@H](CC(C)C)NC(=O)[C@H](CC(=O)O)NC(=O)[C@H](Cc1ccc(O)cc1)NC(=O)[C@H](CCC(N)=O)NC(=O)[C@H](CCCCN)NC(=O)[C@@H](NC(=O)[C@H](Cc1ccccc1)NC(=O)[C@H](CCCCN)NC(=O)[C@H](CCCCN)NC(=O)[C@H](Cc1c[nH]c2ccccc12)NC(=O)[C@H](CCCCN)NC(=O)[C@H](CCSC)NC(=O)[C@H](CCCNC(=N)N)NC(=O)[C@H](CCCNC(=N)N)NC(=O)[C@H](CC(N)=O)NC(=O)[C@H](CCC(N)=O)NC(=O)[C@H](Cc1ccccc1)NC(=O)[C@H](Cc1c[nH]c2ccccc12)NC(=O)[C@@H](NC(=O)[C@H](CCCCN)NC(=O)[C@@H](NC(=O)[C@H](CCC(N)=O)NC(=O)[C@@H](N)CCCNC(=N)N)[C@@H](C)CC)[C@@H](C)CC)[C@@H](C)CC)[C@@H](C)CC)C(=O)O |  | 3D7 | 100 µM, 24 h, early trophozoite stage | reference: solvent control | growth inhibition | 90 to 95%
N#Cc1c(-c2ccco2)[n+]([O-])c2ccc(F)cc2[n+]1[O-] |  | K1 chloroquine-resistant |  | reference: K1 IC50 over 3D7 IC50 | resistance index | 0.76
Clc1ccc(C2=CC(c3ccc[nH]3)=NC2=CNC2CCCC2)cc1 | parasite growth | Dd2, chloroquine-resistant |  |  | IC50 | > 2500 nM
COC(=O)C1=CO[C@@H](C)[C@@H]2Cn3ccc4c5ccccc5nc-4c3C[C@H]12 | parasite growth, [3H]-hypoxanthine incorporation | Dd2 multidrug-resistant | 48 h | reference: Dd2 over 3D7 | sensitivity fold increase | 8 fold
C1=CC(c2ccc[nH]2)=NC1=CNC12CC3CC(CC(C3)C1)C2 |  | HepG2, D6 |  | reference: HepG2 IC50 over D6 IC50 | selectivity index | 205
Cc1ccc2c(c1)[n+]([O-])c(C#N)c(-c1ccco1)[n+]2[O-] |  | K1 chloroquine-resistant |  | reference: K1 IC50 over 3D7 IC50 | resistance index | 0.6
O=C1C2=C(Nc3ccccc3SC2c2ccc(F)cc2)c2ccccc21 (racemic) |  | Dd2 expressing yeast DHOD | together with: 0.5 nM proguanil | reference: transgenic over parental Dd2 | fold resistance | 0.47
COc1cc2c3c4c1Oc1cc5c(cc1O4)[C@H](Cc1ccc(OCCCN(C)C)c(c1)Oc1ccc(cc1)C[C@@H]3N(C)CC2)N(C)CC5 |  | NF54, early ring stage | 3 x IC50, 6 h, 0-6 h post-invasion, read at 72 h post-invasion |  | parasite survival | ~20%
CC(C)C1=CC(=CNC2CCCCCCC2)N=C1c1ccc[nH]1 | parasite growth | Dd2, chloroquine-resistant |  |  | IC50 | 665 nM
CC[C@H](C)[C@H](NC(=O)[C@H](Cc1ccccc1)NC(=O)[C@H](CC(C)C)NC(=O)[C@]1(C)CCCC=CCCC[C@](C)(NC(=O)[C@H](CC(C)C)NC(=O)[C@H](CCCCN)NC(=O)[C@H](CCC(N)=O)NC(=O)[C@H](CO)NC(=O)CNC(=O)CCNC(=O)c2ccc3c(c2)C(=O)OC32c3ccc(O)cc3Oc3cc(O)ccc32)C(=O)N[C@@H](CCC(N)=O)C(=O)N[C@@H](C)C(=O)N[C@@H](C)C(=O)N1)C(=O)NCC(=O)N[C@@H](CO)C(=O)N[C@@H](CCCCN)C(=O)N[C@@H](CC(C)C)C(=O)N[C@H](C(=O)N[C@H](C(N)=O)[C@@H](C)O)[C@@H](C)O |  | CS2 | 10 µM, 24 h, late-stage iRBC |  | parasitemia reduction | ~30%
Clc1ccc(C2=CC(c3ccc[nH]3)=NC2=CNC2CCCCCCC2)cc1 | parasite growth | Dd2, chloroquine-resistant |  |  | IC50 | 1140 nM
COc1ccccc1C1Sc2ccccc2NC2=C1C(=O)c1ccccc12 (racemic) | growth, hypoxanthine uptake | Dd2 expressing yeast DHOD |  |  | EC50 | > 5000 nM
